# Assay results from different studies.
# Each line is one published result; not all experiments were run side by side. “And” joins repeats or separate records; there may be more than shown. Numbers after ± are the reported error.
# Oprd1: Delta-type opioid receptor (Oprd1, Rattus norvegicus, UniProt P33533)
# UniProt P33533, sequence (whole entry, looked up): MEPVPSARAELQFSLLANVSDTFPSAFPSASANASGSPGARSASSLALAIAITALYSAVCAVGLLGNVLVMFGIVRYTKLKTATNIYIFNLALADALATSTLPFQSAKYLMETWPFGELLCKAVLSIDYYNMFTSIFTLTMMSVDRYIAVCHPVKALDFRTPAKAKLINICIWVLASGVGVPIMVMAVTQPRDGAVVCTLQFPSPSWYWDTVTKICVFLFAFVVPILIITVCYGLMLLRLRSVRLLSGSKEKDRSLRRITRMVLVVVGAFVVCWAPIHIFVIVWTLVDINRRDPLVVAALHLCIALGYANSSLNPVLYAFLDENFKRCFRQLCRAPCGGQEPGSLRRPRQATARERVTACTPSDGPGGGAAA
# UniProt P35367, sequence (whole entry, looked up): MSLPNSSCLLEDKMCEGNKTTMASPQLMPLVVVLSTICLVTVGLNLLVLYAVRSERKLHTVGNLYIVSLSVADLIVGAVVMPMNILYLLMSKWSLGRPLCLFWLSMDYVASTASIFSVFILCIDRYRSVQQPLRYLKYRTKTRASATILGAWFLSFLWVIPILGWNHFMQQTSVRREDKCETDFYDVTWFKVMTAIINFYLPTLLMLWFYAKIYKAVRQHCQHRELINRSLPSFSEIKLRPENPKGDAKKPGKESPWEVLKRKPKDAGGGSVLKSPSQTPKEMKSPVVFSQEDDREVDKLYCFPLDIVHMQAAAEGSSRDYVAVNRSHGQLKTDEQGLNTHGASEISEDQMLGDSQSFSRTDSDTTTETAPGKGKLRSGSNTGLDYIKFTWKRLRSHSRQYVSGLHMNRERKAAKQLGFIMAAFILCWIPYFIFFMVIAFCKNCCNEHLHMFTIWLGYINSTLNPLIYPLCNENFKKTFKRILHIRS
# UniProt P50406, sequence (whole entry, looked up): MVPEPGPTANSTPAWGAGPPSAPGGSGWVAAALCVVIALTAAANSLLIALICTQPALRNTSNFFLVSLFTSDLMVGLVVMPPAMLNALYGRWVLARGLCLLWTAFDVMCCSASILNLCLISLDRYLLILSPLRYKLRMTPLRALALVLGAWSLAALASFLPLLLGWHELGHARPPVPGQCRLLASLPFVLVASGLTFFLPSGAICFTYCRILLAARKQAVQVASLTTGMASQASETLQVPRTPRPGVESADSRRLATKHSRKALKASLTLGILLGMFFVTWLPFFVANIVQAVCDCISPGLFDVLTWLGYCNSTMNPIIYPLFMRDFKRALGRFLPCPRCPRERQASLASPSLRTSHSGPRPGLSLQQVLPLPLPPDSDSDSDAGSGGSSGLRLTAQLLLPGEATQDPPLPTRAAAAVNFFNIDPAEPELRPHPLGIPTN
# UniProt O15297, sequence (whole entry, looked up): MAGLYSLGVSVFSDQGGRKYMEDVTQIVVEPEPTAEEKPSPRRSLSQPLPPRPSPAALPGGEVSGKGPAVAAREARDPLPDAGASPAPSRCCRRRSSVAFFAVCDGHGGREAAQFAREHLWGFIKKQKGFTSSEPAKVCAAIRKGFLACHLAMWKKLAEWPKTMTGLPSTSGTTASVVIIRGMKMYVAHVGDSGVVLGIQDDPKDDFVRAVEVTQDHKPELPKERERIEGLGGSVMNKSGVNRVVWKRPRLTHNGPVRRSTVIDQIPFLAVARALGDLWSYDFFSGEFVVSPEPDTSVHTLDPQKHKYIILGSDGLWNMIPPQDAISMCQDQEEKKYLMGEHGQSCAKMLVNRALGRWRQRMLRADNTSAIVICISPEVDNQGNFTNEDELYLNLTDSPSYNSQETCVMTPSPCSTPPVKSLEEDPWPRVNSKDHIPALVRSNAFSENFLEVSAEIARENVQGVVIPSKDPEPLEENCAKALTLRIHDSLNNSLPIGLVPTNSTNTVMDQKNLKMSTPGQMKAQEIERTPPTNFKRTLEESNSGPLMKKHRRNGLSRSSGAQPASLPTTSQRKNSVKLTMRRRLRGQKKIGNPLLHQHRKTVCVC
# UniProt P98170, sequence (whole entry, looked up): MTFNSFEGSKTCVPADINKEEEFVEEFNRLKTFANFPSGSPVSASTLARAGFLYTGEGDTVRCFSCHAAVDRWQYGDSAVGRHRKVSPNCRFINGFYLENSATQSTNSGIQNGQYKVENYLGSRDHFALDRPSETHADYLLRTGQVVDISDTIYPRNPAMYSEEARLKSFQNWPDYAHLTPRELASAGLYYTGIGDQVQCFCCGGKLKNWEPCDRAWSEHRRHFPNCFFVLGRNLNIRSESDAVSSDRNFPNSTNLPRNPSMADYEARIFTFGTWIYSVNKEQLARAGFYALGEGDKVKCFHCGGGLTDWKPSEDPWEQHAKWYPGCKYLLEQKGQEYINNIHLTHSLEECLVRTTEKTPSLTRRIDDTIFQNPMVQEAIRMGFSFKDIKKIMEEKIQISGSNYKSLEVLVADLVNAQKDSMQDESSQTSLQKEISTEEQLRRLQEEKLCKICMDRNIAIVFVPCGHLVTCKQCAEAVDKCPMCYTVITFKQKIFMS
# UniProt Q9NSD7, sequence (whole entry, looked up): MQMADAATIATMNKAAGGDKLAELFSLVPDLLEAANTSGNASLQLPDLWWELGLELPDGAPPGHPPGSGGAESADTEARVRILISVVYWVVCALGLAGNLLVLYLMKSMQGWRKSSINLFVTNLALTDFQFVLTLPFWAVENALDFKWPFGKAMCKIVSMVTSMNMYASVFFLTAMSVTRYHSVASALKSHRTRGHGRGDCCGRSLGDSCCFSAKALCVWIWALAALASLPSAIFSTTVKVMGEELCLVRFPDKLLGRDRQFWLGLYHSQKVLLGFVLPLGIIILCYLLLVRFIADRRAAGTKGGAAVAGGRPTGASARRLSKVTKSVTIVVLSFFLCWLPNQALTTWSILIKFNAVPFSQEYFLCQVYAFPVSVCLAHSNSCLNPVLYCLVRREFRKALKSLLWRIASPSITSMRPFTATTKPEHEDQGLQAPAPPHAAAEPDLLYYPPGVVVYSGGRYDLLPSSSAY
# UniProt P42685, sequence (whole entry, looked up): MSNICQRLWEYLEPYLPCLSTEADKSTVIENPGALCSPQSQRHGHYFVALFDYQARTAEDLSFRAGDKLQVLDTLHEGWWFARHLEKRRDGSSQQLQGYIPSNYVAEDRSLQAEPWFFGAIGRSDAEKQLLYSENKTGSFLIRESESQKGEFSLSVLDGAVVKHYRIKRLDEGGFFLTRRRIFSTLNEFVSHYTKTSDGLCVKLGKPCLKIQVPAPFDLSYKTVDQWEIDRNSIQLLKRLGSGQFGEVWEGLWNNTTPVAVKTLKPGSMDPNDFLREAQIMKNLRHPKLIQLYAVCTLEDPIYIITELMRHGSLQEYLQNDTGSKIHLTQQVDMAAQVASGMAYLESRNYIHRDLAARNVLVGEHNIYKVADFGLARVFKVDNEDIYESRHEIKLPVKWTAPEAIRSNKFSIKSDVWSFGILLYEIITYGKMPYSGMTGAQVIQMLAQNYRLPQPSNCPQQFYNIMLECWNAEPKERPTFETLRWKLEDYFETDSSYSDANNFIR
# UniProt Q9GZQ6, sequence (whole entry, looked up): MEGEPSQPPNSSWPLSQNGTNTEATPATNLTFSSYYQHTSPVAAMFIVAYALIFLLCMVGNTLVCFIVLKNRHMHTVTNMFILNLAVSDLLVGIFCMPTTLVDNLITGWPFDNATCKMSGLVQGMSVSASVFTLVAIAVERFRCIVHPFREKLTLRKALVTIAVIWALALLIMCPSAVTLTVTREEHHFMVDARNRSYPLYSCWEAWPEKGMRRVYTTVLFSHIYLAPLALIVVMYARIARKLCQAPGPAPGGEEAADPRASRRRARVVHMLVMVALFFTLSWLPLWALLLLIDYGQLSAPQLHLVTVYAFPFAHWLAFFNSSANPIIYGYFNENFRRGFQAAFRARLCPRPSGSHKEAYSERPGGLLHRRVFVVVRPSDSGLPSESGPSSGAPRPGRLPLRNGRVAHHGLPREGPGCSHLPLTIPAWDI
# UniProt O00748, sequence (whole entry, looked up): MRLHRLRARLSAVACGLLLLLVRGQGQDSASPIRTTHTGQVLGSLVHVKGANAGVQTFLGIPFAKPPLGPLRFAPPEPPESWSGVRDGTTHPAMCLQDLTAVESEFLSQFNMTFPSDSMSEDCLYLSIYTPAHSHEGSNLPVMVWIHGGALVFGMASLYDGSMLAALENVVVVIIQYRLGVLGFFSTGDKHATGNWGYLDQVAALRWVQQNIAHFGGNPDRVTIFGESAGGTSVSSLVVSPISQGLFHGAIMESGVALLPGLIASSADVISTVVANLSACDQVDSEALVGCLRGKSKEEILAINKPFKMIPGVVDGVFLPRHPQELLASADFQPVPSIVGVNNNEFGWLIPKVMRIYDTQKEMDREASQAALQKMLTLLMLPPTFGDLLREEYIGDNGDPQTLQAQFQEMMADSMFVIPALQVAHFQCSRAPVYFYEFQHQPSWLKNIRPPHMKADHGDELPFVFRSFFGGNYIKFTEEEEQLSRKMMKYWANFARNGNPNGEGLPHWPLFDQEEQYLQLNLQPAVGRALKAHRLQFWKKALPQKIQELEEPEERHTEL
# UniProt P04062, sequence (whole entry, looked up): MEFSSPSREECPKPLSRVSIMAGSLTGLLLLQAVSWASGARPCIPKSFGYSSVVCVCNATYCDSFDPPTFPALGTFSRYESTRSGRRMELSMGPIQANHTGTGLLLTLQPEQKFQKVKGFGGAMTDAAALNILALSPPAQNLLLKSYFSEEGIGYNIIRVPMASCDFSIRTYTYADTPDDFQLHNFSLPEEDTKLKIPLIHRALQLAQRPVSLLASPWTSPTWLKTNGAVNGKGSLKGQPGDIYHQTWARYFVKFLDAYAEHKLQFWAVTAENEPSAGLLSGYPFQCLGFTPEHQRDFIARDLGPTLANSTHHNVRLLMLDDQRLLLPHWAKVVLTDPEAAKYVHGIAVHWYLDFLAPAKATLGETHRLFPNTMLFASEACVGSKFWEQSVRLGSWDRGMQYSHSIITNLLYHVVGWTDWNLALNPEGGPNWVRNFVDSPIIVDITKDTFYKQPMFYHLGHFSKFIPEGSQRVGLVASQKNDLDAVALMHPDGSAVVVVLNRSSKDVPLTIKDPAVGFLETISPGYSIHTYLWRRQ
Compound,target,assay,test system,setting,Ki
O=C1c2cccc3cccc(c23)C(=O)N1CCNCCN1C(=O)c2cccc3cccc(c23)C1=O,"Chitooligosaccharidolytic beta-N-acetylglucosaminidase (Ostrinia furnacalis, UniProt Q06GJ0, W490A)",inhibitor,,,> 100000 nM
C/C=C/C[C@@H](C)[C@@H](O)[C@H]1C(=O)N[C@@H](CC)C(=O)N(C)C(Cc2ccc(C(=O)NCCCCCCN)cc2)C(=O)N(C)[C@@H](CC(C)C)C(=O)N[C@@H](C(C)C)C(=O)N(C)[C@@H](CC(C)C)C(=O)N[C@@H](C)C(=O)N[C@H](C)C(=O)N(C)[C@@H](CC(C)C)C(=O)N(C)[C@@H](CC(C)C)C(=O)N(C)[C@@H](C(C)C)C(=O)N1C (stereo partly shown),"Peptidyl-prolyl cis-trans isomerase F, mitochondrial (Ppif, Rattus norvegicus, UniProt P29117)","PPIase activity, inhibitor",,"pH 7.5, 15 °C",15 nM
N=C(N)Nc1ccc(CC(=O)NCC2(Nc3ccccc3)CCN(Cc3ccccc3)CC2)cc1,"NPFFR1 (Homo sapiens, UniProt Q9GZQ6)",cell-free assay,,,2350 nM
COc1ccc2ccc3c(c2c1)C=[N+]1C2CCCCC2[N+]2=Cc4ccc(OCCN5CCCCC5)cc4[O][Au-]21[O]3.F[P-](F)(F)(F)(F)F (stereo not shown),Klebsiella pneumoniae glutathione reductase,competitive inhibitor,carbapenem-resistant,with: GSSG,746 nM
O=c1ccoc2ccc(OCCCCCN3CCCCCC3)cc12,"Cholinesterase (BCHE, Homo sapiens, UniProt P06276)","enzyme activity, inhibitor, Ellman",,,88.7 nM
CC[C@H](C)[C@@H]1NC(=O)[C@H](Cc2ccccc2)NC(=O)[C@H](CCC(=O)O)NC(=O)[C@H](CCCNC(=N)N)NC(=O)[C@](C)(NC(=O)[C@H](CS)NC(=O)[C@H](CC(C)C)NC(=O)[C@H](CCCNC(=N)N)NC(=O)[C@@H](NC(=O)CNC(=O)[C@H](Cc2ccc(O)cc2)NC(=O)[C@@H]2CCCN2C(=O)[C@H](C)NC(=O)[C@H](C)NC(=O)[C@@H](N)CCCNC(=N)N)C(C)C)CCCC=CCCCCCC[C@@](C)(C(=O)N[C@H](C(=O)N[C@@H](Cc2ccccc2)C(=O)N[C@H](C(=O)N[C@@H](CS)C(=O)NCC(=O)NCC(=O)N[C@@H](CO)C(=O)N[C@@H](CCCNC(=N)N)C(=O)N[C@@H](Cc2c[nH]c3ccccc23)C(=O)O)[C@@H](C)O)[C@@H](C)CC)NC(=O)[C@H](C)NC(=O)[C@H](CCCNC(=N)N)NC1=O,"RXFP3 (Homo sapiens, UniProt Q9NSD7)",ligand displacement,,,331 nM
CC[C@H](C)[C@@H]1NC(=O)[C@H](COP(=O)(O)O)NC(=O)[C@H](Cc2ccccc2)NC(=O)CSC[C@@H](C(N)=O)NC(=O)[C@H](C)NC(=O)[C@H](C(C)C)NC(=O)[C@H](Cc2ccc(OP(=O)(O)O)cc2)NC1=O,"PPM1D (Homo sapiens, UniProt O15297)","phosphatase activity, inhibitor, malachite green",,with: ATM pS1981 peptide,1100 ± 300 nM
COc1cc2c(cc1OC)C(=O)/C(=C\c1ccc(-n3ccnc3)cc1)C2,"ACHE (Homo sapiens, UniProt P22303)","enzyme activity, inhibitor",,,14000 nM
CCN(C)C(=O)Oc1ccccc1/C=C1\Cc2cc(OC)c(OC)cc2C1=O,"Cocaine esterase (CES2, Homo sapiens, UniProt O00748)","enzyme inactivation, inactivator, inactivation kinetics",,,1.58 nM
CC(=O)N1CCC(NC(=O)C(N)Cc2c(C)cc(O)cc2C)c2cc(CN3CCC4CCCCC4C3)ccc21 (stereo not shown),Oprd1,"ligand displacement, radioligand",,cell membranes,2 nM
CCN1CCN(C2=Nc3cc(Cl)ccc3Nc3ccccc32)CC1,"HRH1 (Homo sapiens, UniProt P35367)","cell-free assay, radioligand",,,< 5 nM and 1.9 nM
CC(=O)N[C@@H](CCCNC(=N)N)C(=O)N[C@@H](Cc1ccc(O)cc1)C(=O)N[C@@H](CCCNC(=N)NC(=O)NCCCCN)C(=O)N[C@@H](CC(C)C)C(=O)N[C@@H](CCCNC(=N)N)C(=O)N[C@H](Cc1ccc(O)cc1)C(N)=O,"NPY4R (Homo sapiens, UniProt P50391)","ligand displacement, radioligand",,,724 nM
CC(C)=CCCC1(C)C=Cc2c(ccc3cc(-c4cc(O)cc(O)c4CC=C(C)C)oc23)O1 (stereo not shown),"GSK3B (Homo sapiens, UniProt P49841)","kinase activity, Kinase-Glo, Dixon plot",,"competitive with ATP, with: substrate 25 µM constant",5540 nM
COc1ccc(S(=O)(=O)N(CC(C)C)C[C@@H](O)[C@H](Cc2ccccc2)NC(=O)O[C@H]2CO[C@H]3O[C@@H]4OCC[C@@H]4[C@H]32)cc1,"Gag-Pol polyprotein, protease (Human immunodeficiency virus type 1 group M subtype B, UniProt P03367, C567A/C595A/L533I/L563I/L576V/Q507K)","protease activity, inhibitor",,,7.2 ± 1.4 nM
Cc1cc(O)cc(C)c1CC(N)C(=O)NC1CCNc2c(Cc3ccccc3)cccc21 (stereo not shown),Oprd1,"ligand displacement, radioligand",,cell membranes,360 nM
CNC(=O)C1CCN(c2ccccc2NC(=O)c2ccc(-c3cc(O)ccc3C)c(C)n2)CC1,"FRK (Homo sapiens, UniProt P42685)","cell-free assay, TR-FRET",,,5.2 nM
CNC(C)C(=O)NC1COC2CCC(C(=O)NCc3ccccc3)N2C1=O (mixture of isomers),"E3 ubiquitin-protein ligase XIAP, BIR2 (XIAP, Homo sapiens, UniProt P98170)","ligand displacement, FP",,,> 56000 nM
CCCC[C@@H]1NC(=O)[C@H](Cc2ccccc2)NC(=O)CNC(=O)[C@H](NC(=O)[C@@H](N)Cc2ccc(O)cc2)C(C)(C)SSC(C)(C)[C@H](C(=O)N[C@@H](Cc2c[nH]c3ccccc23)C(=O)NCc2cc(C(F)(F)F)cc(C(F)(F)F)c2)NC(=O)[C@@H]2CCCN2C1=O,"OPRD1 (Homo sapiens, UniProt P41143)","ligand displacement, radioligand",,cell membranes,720 nM
CC[C@@H]1NC(=O)[C@H](CCCNC(=N)N)NC(=O)[C@H](NC(=O)C(C)C)CCNC(=O)c2cc(F)c(c(F)c2)N=Nc2c(F)cc(cc2F)C(=O)NCCNC(=O)[C@@H](c2ccccc2)NC1=O,"WDR5 (Homo sapiens, UniProt P61964)","ligand displacement, FP",,,8 nM
OC(COCc1ccccc1Cl)CN1CC=C(c2c[nH]c3ccccc23)CC1 (racemic),"SLC6A4 (Homo sapiens, UniProt P31645)","ligand displacement, radioligand",,,37 nM
CC(C)C[C@H](NC(=O)[C@H](Cc1cccc2ccccc12)NC(=O)CNC(=O)[C@H](NC(=O)[C@@H](N)Cc1ccc(O)cc1)[C@H](C)O)C(=O)N[C@@H](CO)C(N)=O,Oprd1,"ligand displacement, radioligand",,"pH 7.4, cell membranes",0.9 nM
"CC1(CCN2CCc3ccccc3C2)Cc2cc(Cl)ccc2C1=O (single isomer, unassigned)","DRD3 (Homo sapiens, UniProt P35462)","ligand displacement, radioligand",,,996 nM
CCCCCCCCP(=O)(Oc1ccccc1)O[C@@H]1O[C@H](CO)[C@@H](O)[C@H](O)[C@H]1F (stereo partly shown),"GBA1 (Homo sapiens, UniProt P04062)","enzyme activity, irreversible inhibitor",,"pH 5.5, 37 °C, with: 2,4-dinitrophenyl beta-D-glucopyranoside",117000 nM
COc1ccc2c(c1)c(CCN(C)C)cn2Cc1ccccc1,"HTR6 (Homo sapiens, UniProt P50406)","ligand displacement, radioligand",,cell membranes,23 nM
Cc1cc(O)cc(C)c1CC(N)C(=O)NC1CCNc2c1cc(Cc1ccccc1)cc2C(C)(C)C (stereo not shown),Oprd1,"ligand displacement, radioligand",,cell membranes,3.8 nM

# A few entries again:
Compound,target,assay,test system,setting,Ki
CCCC[C@@H]1NC(=O)[C@H](Cc2ccccc2)NC(=O)CNC(=O)[C@H](NC(=O)[C@@H](N)Cc2ccc(O)cc2)C(C)(C)SSC(C)(C)[C@H](C(=O)N[C@@H](Cc2c[nH]c3ccccc23)C(=O)NCc2cc(C(F)(F)F)cc(C(F)(F)F)c2)NC(=O)[C@@H]2CCCN2C1=O,"OPRD1 (Homo sapiens, UniProt P41143)","ligand displacement, radioligand",,cell membranes,720 nM
CC[C@@H]1NC(=O)[C@H](CCCNC(=N)N)NC(=O)[C@H](NC(=O)C(C)C)CCNC(=O)c2cc(F)c(c(F)c2)N=Nc2c(F)cc(cc2F)C(=O)NCCNC(=O)[C@@H](c2ccccc2)NC1=O,"WDR5 (Homo sapiens, UniProt P61964)","ligand displacement, FP",,,8 nM
OC(COCc1ccccc1Cl)CN1CC=C(c2c[nH]c3ccccc23)CC1 (racemic),"SLC6A4 (Homo sapiens, UniProt P31645)","ligand displacement, radioligand",,,37 nM
CC(C)C[C@H](NC(=O)[C@H](Cc1cccc2ccccc12)NC(=O)CNC(=O)[C@H](NC(=O)[C@@H](N)Cc1ccc(O)cc1)[C@H](C)O)C(=O)N[C@@H](CO)C(N)=O,Oprd1,"ligand displacement, radioligand",,"pH 7.4, cell membranes",0.9 nM
